# Measured values from different studies.
# ± marks the error that the study gave.
Structure (SMILES),assay,system,conditions,endpoint,value
C[N+](C)(CCOCCOCCOCCNC(=S)Nc1ccc(C[C@H]2CN(CC(=O)[O-])CCN(CC(=O)[O-])CCN2CC(=O)[O-])cc1)C[c-]1cccc1.[64Cu+2].[Fe+2].c1cc[cH-]c1,radio-HPLC,PBS,"240 min, pH 7.4",intact compound,81.2 ± 3.2%
CN([O-])C(=O)CN1CCN(CC(=O)N(C)[O-])CCN(Cc2ccccn2)CC1.[89Zr+4],radio-TLC,human serum,"3 days, run 3",intact complex,91.6%
O=C([O-])CN1CCN(CC(=O)[O-])CCN(CC(CCCc2ccccc2[N+](=O)[O-])N(CC(=O)[O-])CC(=O)[O-])CC1.[177Lu+3] (stereo not drawn),HPLC,human serum,"0 h, pH 7, 37 °C",intact radiolabelled complex,100%
COc1ccc2c(c1)C(C)(C)C(/C=C/C1=C(Oc3ccc(C(=O)NCCCCOc4cc(CN(Cc5ccccn5)Cc5ccccn5)cc(CN(Cc5ccccn5)Cc5ccccn5)c4)cc3)C(=C/C=C3/N(CCCCS(=O)(=O)[O-])c4ccc(OC)cc4C3(C)C)CCC1)=[N+]2CCCCS(=O)(=O)[O-].O=[N+]([O-])[O-].O=[N+]([O-])[O-].[99Tc+].[C-]#[O+].[C-]#[O+].[C-]#[O+].[Zn+2],radio-TLC,formulation buffer,"18 h, room temperature",intact compound,97.7%
CN(O)C(=O)CCC(=O)NCCCN(CCCCN(CCCNC(=O)CCC(=O)N(C)O)C(=O)CCC(=O)N(C)O)C(=O)CCC(=O)N(C)O.[89Zr],radio-TLC,aqueous buffer,"3 d, pH 7.2, 37 °C, 89Zr-labelled complex, added: NiCl2 10-fold excess",intact complex,96.8 ± 2.8%
Cc1ccc(C(C)C)cc1.O=C(N=P(c1ccccc1)(c1ccccc1)c1ccccc1)c1[c-]cccc1.[Cl-].[Ru+2],,DMSO-d6,1 week,intact compound,58%
CC(=O)N([O-])CCCCCNC(=O)CCC(=O)N([O-])CCCCCNC(=O)CCC(=O)N([O-])CCCCCN.[89Zr+4],radio-TLC,aqueous buffer,"7 d, pH 7.2, 37 °C, 89Zr-labelled complex, added: FeCl3 10-fold excess",intact complex,89.2 ± 0.8%
C[N+](C)(CCOCCOCCOCCOCCOCCOCCOCCNC(=S)Nc1ccc(CC2CN(CC(=O)[O-])CCN(CC(=O)[O-])CCN2CC(=O)[O-])cc1)C[c-]1cccc1.[64Cu+2].[Fe+2].c1cc[cH-]c1 (stereo not drawn),radio-HPLC,human plasma,"240 min, 37 °C",intact compound,86.5 ± 0.1%
CN([O-])C(=O)CN1CCNCCN(CC(=O)N(C)[O-])CC1.[89Zr+4],radio-TLC,human serum,"7 days, run 1",intact complex,100%

# Excerpt of the above:
Structure (SMILES),assay,system,conditions,endpoint,value
COc1ccc2c(c1)C(C)(C)C(/C=C/C1=C(Oc3ccc(C(=O)NCCCCOc4cc(CN(Cc5ccccn5)Cc5ccccn5)cc(CN(Cc5ccccn5)Cc5ccccn5)c4)cc3)C(=C/C=C3/N(CCCCS(=O)(=O)[O-])c4ccc(OC)cc4C3(C)C)CCC1)=[N+]2CCCCS(=O)(=O)[O-].O=[N+]([O-])[O-].O=[N+]([O-])[O-].[99Tc+].[C-]#[O+].[C-]#[O+].[C-]#[O+].[Zn+2],radio-TLC,formulation buffer,"18 h, room temperature",intact compound,97.7%
